Published values from different studies.
A part holds a random share of what one study measured. Changes are numbered by the printed parent chain.

Study 1
Target: Sal-like protein 4, full length isoform A (SALL4, Homo sapiens, UniProt Q9UJQ4, residues 1-1053)
UniProt Q9UJQ4, sequence (whole entry, looked up): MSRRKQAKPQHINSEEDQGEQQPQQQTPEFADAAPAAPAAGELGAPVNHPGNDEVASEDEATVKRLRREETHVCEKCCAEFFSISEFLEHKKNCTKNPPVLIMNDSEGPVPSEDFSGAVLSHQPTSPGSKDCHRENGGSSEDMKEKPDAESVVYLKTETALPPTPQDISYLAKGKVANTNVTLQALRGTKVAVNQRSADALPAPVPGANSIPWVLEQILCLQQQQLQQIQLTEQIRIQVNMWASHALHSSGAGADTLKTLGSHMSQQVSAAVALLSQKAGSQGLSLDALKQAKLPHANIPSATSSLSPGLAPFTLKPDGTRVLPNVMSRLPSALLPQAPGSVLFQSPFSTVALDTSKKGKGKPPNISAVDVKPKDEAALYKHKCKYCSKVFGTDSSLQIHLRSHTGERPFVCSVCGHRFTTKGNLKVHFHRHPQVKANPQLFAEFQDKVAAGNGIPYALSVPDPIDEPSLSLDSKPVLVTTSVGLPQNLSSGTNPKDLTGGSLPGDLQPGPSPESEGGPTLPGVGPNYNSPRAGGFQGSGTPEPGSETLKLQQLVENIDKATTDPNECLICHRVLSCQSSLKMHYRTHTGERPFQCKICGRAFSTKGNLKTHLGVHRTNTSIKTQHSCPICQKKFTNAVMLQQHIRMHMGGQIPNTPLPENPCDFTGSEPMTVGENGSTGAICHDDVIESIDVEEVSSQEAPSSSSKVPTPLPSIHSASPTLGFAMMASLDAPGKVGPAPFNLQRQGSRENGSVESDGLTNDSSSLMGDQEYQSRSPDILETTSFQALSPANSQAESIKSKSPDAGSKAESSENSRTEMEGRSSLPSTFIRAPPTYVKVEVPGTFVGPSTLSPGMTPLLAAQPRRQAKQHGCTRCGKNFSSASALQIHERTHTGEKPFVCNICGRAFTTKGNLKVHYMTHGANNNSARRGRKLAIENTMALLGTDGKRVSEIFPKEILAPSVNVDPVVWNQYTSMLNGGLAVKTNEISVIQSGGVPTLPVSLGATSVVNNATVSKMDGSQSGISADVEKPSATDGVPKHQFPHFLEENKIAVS
Method: universal PBM
Form: double-stranded DNA, one strand shown
Sample: in vitro
Tested at: 600 nM
Notes: 8-mer, flanks averaged, mean of replicates
Direction: higher = stronger binding
Endpoint: E-score
CTGGCAAG: -0.079
CGGAGCAC: -0.217
GACGATTA: 0.185
GATGCAGC: -0.0798
ATTTCATG: 0.134

Study 2
Target: CCNF, cyclin fold, Cln2 fusion (human)
Method: yeast growth competition, sequencing
Sample: yeast
Notes: strong parent motif
Relative to: not given
Direction: higher = stronger binding
Endpoint: normalised enrichment score
Starting sequence: MICAL3 docking peptide (human); LQLRRQLSFSEDS
LQLRRQPSFSEDS [L7P]: 0.1
LQLRRQLSNSEDS [F9N]: -0.0108
LNLRRQLSFSEDS [Q2N]: 5.51
LQLRRYLSFSEDS [Q6Y]: 2.68
LQLRMQLSFSEDS [R5M]: 0.322
LMLRRQLSFSEDS [Q2M]: 4.94

Study 3
Target: ABI1, truncated, D143A, DHFR fusion (Arabidopsis thaliana)
Method: DHFR PCA, deep sequencing
Sample: yeast
Notes: methotrexate growth selection, single substitutions
Together with: (+)-ABA 0.11 µM
Relative to: wild-type fitted maximum
Direction: higher = stronger binding
Endpoint: relative binding score
Starting sequence: PYL1, truncated, DHFR fusion (Arabidopsis thaliana); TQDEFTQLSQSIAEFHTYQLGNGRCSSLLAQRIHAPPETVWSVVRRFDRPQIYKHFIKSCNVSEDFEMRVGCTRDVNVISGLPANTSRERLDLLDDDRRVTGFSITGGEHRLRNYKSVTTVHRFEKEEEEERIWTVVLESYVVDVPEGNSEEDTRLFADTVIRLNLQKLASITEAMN
F56Q: -6.51%
N165P: 5.38%
I162S: 5.64%
G81I: 11%

Mixed results
PhoQ, residues 284 288 289 292 302 303 SASVAL
fold induction (PhoP, residues 12 14 15 18 19 LHTVM (Escherichia coli, UniProt P23836); Sort-seq, measured: YFP reporter; E. coli; PhoQ-PhoP variant library, together with: 10 µM Mg2+; relative to: high Mg2+ state, higher = stronger signaling): 20.2

A few entries again (study 1):
CGGAGCAC: -0.217
